Assay results pooled from the literature.
Numbered parts are unrelated; each lists some results of a single study. “And” joins repeats or separate records; there may be more than shown. ± gives the spread as reported.

Study 1 — notes: 10-fold dilution, LC-MS; with: β-mercaptoethanol
With N#C/C(=C\C1CC1)C(=O)N1CCC[C@H]1Cn1nc(-c2ccc(Oc3ccccc3)cc2F)c2c(N)ncnc21 the dissociation half-life was 1.12 ± 0.05 min.
CN(C1COC1)C(C)(C)/C=C(\C#N)C(=O)N1CCC[C@H]1Cn1nc(-c2ccc(Oc3ccccc3)cc2F)c2c(N)ncnc21 gave a dissociation half-life of 0.85 ± 0.05 min.
With CC(C)(C=C(C#N)C(=O)N1CCCC1Cn1nc(-c2ccc(Oc3ccccc3)cc2F)c2c(N)ncnc21)N1CCOCC1 (centres unmarked) the dissociation half-life was 2.46 ± 0.01 min.

Study 2 — cell line: Gaucher fibroblasts L444P/L444P; method: 4-MUG hydrolysis, cell lysate; concentration: 10 µM; reference: DMSO
The GCase activity of CCOc1ccc2nc(Sc3nc(NCCN4CCOCC4)nc(Nc4ccc(I)cc4)n3)sc2c1 is reported as 112% and 119% and 131% and 108%.
With Ic1cccc(Nc2nc(NCCN3CCOCC3)nc(N3CCOCC3)n2)c1 the GCase activity was 130% and 154% and 133% and 124% and 116% and 114%.
c1ccc(Nc2nc(NCCN3CCOCC3)nc(N3CCOCC3)n2)cc1 has a GCase activity of 122% and 120% and 110% and 111% and 106%.
With Ic1ccc(Nc2nc(NCCN3CCOCC3)nc(N3CC4CCC(C3)O4)n2)cc1 the GCase activity was 119% and 118% and 129% and 108% and 124%.
Ic1ccc(Nc2nc(NCCN3CCOCC3)nc(N3CCCCC3)n2)cc1 gave a GCase activity of 91.6% and 88% and 87.6% and 89% and 90.7%.
The GCase activity of Ic1ccc(Nc2nc(NCCCN3CCOCC3)nc(N3CCOCC3)n2)cc1 is reported as 151% and 157% and 141% and 118% and 111% and 124%.
For COc1ccc(Nc2nc(NCCN3CCOCC3)nc(N3CCOCC3)n2)cc1, the GCase activity was 104% and 109% and 103% and 113%.
For Cc1ccc(Nc2nc(NCCN3CCOCC3)nc(N3CCOCC3)n2)cc1, the GCase activity was 141% and 171% and 144% and 166% and 142%.

Study 3 — effect on: binding; method: NanoBRET; cells: HEK293 (live); reading: lower = stronger binding
Structure (SMILES): C=CC(=O)N1CCN(c2nc(OC[C@@H]3CCCN3C)nc3c2CCN(c2cccc4cccc(C)c24)C3)C[C@@H]1CC#N
Target: GTPase KRas (KRAS, Homo sapiens, UniProt P01116, G12D)
1.602 µM — target engagement: 13% and 12.5% and 17.1% and 12.6%.
0.3979 µM — target engagement: 86.3% and 80.7% and 84.3% and 83.5%.
The target engagement was 41.4% and 47.6% and 46.4% and 42% (1 µM).

Study 4 — cell line: AsPC-1; method: in-cell ELISA; notes: individual replicates
Compound: Cc1ncsc1-c1ccc(C2(NC(=O)C3CC(O)CN3C(=O)C(NC(=O)c3ccc(COc4c(-c5c(C)c(F)cc6[nH]ncc56)c(C5CC5)cc5c(N6CC7CC6CN7)nc(OC6CCOCC6)nc45)cc3)C(C)(C)C)CC2)cc1 (centres unmarked)
It gave 22% and 11.4% and 19.5% and 16.4% and 9.45% and 9.25% for phospho-ERK1/2 level (3 µM).
It gave 11.3% and 10.5% and 11.5% and 13.9% and 12.3% and 13.1% for phospho-ERK1/2 level (10 µM).
3 nM — phospho-ERK1/2 level: 89.8% and 92.8% and 98.1% and 99.4% and 103%.
For 300 pM: phospho-ERK1/2 level read 87.2% and 106% and 102% and 92.1%.

Study 5
SMILES: Cc1ccc(O)c(C)c1-c1cnc2[nH]c(-c3cnc(N4CCC5(CC4)CC(N4CCN(c6ccc(N[C@H]7CCC(=O)NC7=O)cc6F)CC4)CO5)nc3)cc2c1C#N (single isomer, unassigned)
PKMYT1: Membrane-associated tyrosine- and threonine-specific cdc2-inhibitory kinase (PKMYT1, Homo sapiens, UniProt Q99640)
UniProt Q99640, sequence (whole entry, looked up): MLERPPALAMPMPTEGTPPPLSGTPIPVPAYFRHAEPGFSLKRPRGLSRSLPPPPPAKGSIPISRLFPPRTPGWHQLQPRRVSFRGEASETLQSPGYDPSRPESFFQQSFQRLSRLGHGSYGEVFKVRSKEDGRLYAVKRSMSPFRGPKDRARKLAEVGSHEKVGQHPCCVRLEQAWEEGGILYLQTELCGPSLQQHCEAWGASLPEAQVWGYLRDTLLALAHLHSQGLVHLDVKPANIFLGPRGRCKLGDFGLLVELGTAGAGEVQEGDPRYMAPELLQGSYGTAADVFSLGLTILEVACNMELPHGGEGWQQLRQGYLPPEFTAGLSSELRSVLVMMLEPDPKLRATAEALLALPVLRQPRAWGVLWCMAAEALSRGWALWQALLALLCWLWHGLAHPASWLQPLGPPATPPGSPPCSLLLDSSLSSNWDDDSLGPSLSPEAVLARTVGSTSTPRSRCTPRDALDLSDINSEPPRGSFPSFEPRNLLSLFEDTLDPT
For U-251 MG; cell growth; 1111.11 nM: inhibition read 65.2%.
It gave 2.26% and 1.13% and 4.18% for inhibition (HuCCT-1; cell proliferation; 1.52 nM).
For PKMYT1; binding, HTRF; 3333.33 nM: inhibition read 101% and 99.5%.
For PKMYT1; 10000 nM: inhibition read 101% and 99.5%.
It gave 89% for inhibition (U-251 MG; cell growth; 10000 nM).
PKMYT1; enzyme activity, inhibitor; 0.3704 µM — inhibition: 99.3%.
It gave 100% for inhibition (PKMYT1; enzyme activity, inhibitor; 10 µM).
The inhibition was 86.1% (U-251 MG; cell growth; 3333.33 nM).
It gave 98.3% for inhibition (PKMYT1; 0.3333 µM).
It gave 81.4% and 82% for inhibition (PKMYT1; binding, HTRF; 13.72 nM).
For HCC1569; automated capillary immunoblot, refers to: CDK1 phospho-Thr14; 1 nM, 2 h: inhibition read -5.37%.
It gave 98.4% for inhibition (HCC1806; cell proliferation; 3333.33 nM).
The inhibition was 51% (HCC1569; automated immunoblotting, refers to: CDK1 phospho-Thr14; concentration not given, 2 h after washout).
The inhibition was 5.68% and 13.7% (PKMYT1; 0.00137 µM).
